Results from different studies.
Each line is one published result; not all experiments were run side by side. ± marks the error that the study gave.
Target: Cytochrome P450 3A4 (CYP3A4, Homo sapiens, UniProt P08684)
UniProt P08684, sequence (whole entry, looked up): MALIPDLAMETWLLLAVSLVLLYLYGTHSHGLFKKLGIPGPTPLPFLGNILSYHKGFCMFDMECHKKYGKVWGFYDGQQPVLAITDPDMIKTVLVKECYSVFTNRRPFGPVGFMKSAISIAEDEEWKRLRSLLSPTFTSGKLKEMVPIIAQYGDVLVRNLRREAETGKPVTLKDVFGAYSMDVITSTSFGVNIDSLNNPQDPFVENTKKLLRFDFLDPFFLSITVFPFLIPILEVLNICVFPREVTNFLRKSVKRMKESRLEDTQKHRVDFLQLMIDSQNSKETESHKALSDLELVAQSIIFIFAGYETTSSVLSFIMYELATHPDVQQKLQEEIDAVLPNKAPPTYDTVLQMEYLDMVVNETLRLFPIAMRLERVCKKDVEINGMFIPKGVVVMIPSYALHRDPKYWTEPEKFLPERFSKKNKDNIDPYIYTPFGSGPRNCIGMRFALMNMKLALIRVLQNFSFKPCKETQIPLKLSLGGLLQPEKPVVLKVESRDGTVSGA

`N#C[C@H](C[C@@H]1CCCNC1=O)NC(=O)[C@H](CC1CC1)NC(=O)c1cc2cccc(Cl)c2[nH]1` has an IC50 of 6.56 µM (enzyme activity, time-dependent inhibitor; human liver microsomes; 30 min NADPH preincubation, together with: midazolam 1'-hydroxylation).
For `OCc1ccc(-c2nn(Cc3ccccc3)c3ccccc23)o1`, the IC50 was 22.2 µM (enzyme activity, time-dependent inhibitor; pooled human liver microsomes; 0 min, preincubation with NADH, together with: testosterone).
The IC50 of `O=C(NCCN1CCCC1)c1cc(-c2ccc(CN3CCOCC3)cc2)nc2ccc(F)cc12` is reported as over 100 µM (enzyme activity, inhibitor; human liver microsomes; NADPH pre-incubation, together with: nifedipine).
For `COc1cc2c(c(OC)c1OC)-c1c(cc3c(c1OC)OCO3)C[C@H](C)[C@](C)(O)[C@H]2OC(=O)c1ccccc1`, the IC50 was 0.059 ± 0.03 µM (midazolam 1'-hydroxylation, inhibitor, recombinant enzyme; 15 min, pH 7.4, together with: midazolam 5 µM).
With `Cc1cc(OC2COC2)cc(C(=O)Nc2ccc(F)cn2)n1` the IC50 was over 30 µM (inhibitor).
For `CCC(C)(C)C(=O)O[C@H]1C[C@@H](C)C=C2C=C[C@H](C)[C@H](CC[C@@H](O)C[C@@H](O)CC(=O)O)[C@H]21`, the IC50 was 10.7 µM (inhibitor; together with: BFC substrate).
For `CCOc1cc(-c2nncn2C)ccc1Nc1ncc2cc(C)nc(NCC(C)(C)C)c2n1`, the IC50 was 10 to 50 µM (inhibitor).
The Ki of `C=C(F)C(=O)N1CCN(c2nc(OC[C@@H]3CCCN3C)nc3c2CCN(c2cccc4cccc(Cl)c24)C3)C[C@@H]1CC#N` is reported as 1.85 µM (enzyme activity, time-dependent inhibitor; human liver microsomes).
With `COc1cc2c(c(OC)c1OC)-c1c(cc3c(c1OC)OCO3)[C@H](OC(=O)c1ccccc1)[C@@](C)(O)[C@@H](C)C2` the IC50 was 0.19 ± 0.09 µM (midazolam 1'-hydroxylation, inhibitor, recombinant enzyme; 15 min, pH 7.4, together with: midazolam 5 µM).
`NC/C(=C\F)COc1cccc(Cn2c(=S)[nH]c(=O)c3[nH]cnc32)c1` has an IC50 of over 10 µM (enzyme activity, inhibitor; CYP3A4 screen).
